Experimental data collected from several papers.
A part holds a random share of what one study measured.

Set 1
Organism: Vesicular stomatitis virus
Read-out: pseudovirus infection
Method: FDA-approved drug library screen
Concentration: concentration not given
Notes: SARS-CoV-2 spike pseudotype
Relative to: vehicle
Compound	GFP-positive cells [%]
[I-].[K+]	98.3
O=C([O-])/C=C/C(=O)[O-].[Fe+2]	103
CC(C(=O)[O-])c1cccc(Oc2ccccc2)c1.CC(C(=O)[O-])c1cccc(Oc2ccccc2)c1.[Ca+2] (stereo not drawn)	77.2

Set 2
Target: Replicase polyprotein 1ab, nsp13 helicase (rep, Severe acute respiratory syndrome coronavirus 2, UniProt P0DTD1)
Mode: inhibitor
Concentration: 20 µM
Structure (SMILES)	inhibition [%]
CC(S)C(=O)NCC(=O)O (stereo not drawn)	4.07
CN(Cc1ccc(C(C)(C)C)cc1)Cc1cccc2ccccc12	7.1
O=C1c2cc(Cl)ccc2OC2CCON12 (stereo not drawn)	-0.1
CN(C)Cc1c(C(=O)NCCOc2ccc(C(=O)NO)cc2)oc2ccccc12	4.48
Nc1cccc(-c2cc3c(Oc4cccc(O)c4)ncnc3[nH]2)c1	2.42
CC(=O)Nc1ccc(OC(C)=O)cc1	8.9
CCCCNc1nc(N)c2[nH]c(=O)n(Cc3ccc(OCCN(C)C)nc3)c2n1	4.43
COc1ccc2[nH]c3c(-c4cccc5ccccc45)nccc3c2c1	6.11
Cc1cc(C)c(N)c(C#Cc2cccc(F)c2)n1	3.52
O=C(O)CCCCCCCC(=O)O	-1.54
c1ccc2sc(SNC3CCCCC3)nc2c1	5.92
Cc1nnc(-c2ccc3occ(-c4ccc([S+](C)[O-])cc4)c3c2)o1 (stereo not drawn)	3.22
Nc1ccc(C(=O)Nc2cccc(-c3nc(N4CCOCC4)c4oc5ncccc5c4n3)c2)cn1	4.19
COc1ccc2c(c1)[C@]13CCCC[C@@H]1[C@H](C2)N(C)CC3	0.69
O=C(O)CNC(=O)c1c(O)c2ccccc2n(Cc2ccccc2)c1=O	4.2
C=CCN1C[C@H](C)N([C@H](c2ccc(C(=O)N(CC)CC)cc2)c2cccc(O)c2)C[C@H]1C	10.8
CN(C)CCc1ccc(O)cc1	9.6
C[C@H](N[C@@H](CCc1ccccc1)C(=O)O)C(=O)N1Cc2ccccc2C[C@H]1C(=O)O	0.3
S=C=Nc1cccc(NC(=S)NCCCCNC(=S)Nc2cccc(N=C=S)c2)c1	2.47
COc1cc(Cc2cnc(N)nc2N)cc(OC)c1OC	3.06
CNC(=O)c1cccc2cc(Oc3ccnc4cc(OCC5(N)CC5)c(OC)cc34)ccc12	18
CCN(CC)CCNC(=O)c1c(C)[nH]c(/C=C2\C(=O)Nc3ccc(F)cc32)c1C	14.5
CN(C(=O)CN(CCO)CC(=O)N(C)C(C)(C)Cc1ccccc1)C(C)(C)Cc1ccccc1	2.31
C[N+]1(C)[C@@H]2CC[C@H]1C[C@@H](OC(=O)C(CO)c1ccccc1)C2 (stereo partly drawn)	0.81
Cc1csc(S(=O)(=O)N(CC(C)C)c2cc3c(cc2OCc2ccc(C(=O)O)cc2)CCC3)n1	1.76

Set 3
Target: POU, POU domain (Salpingoeca helianthica)
Method: Spec-seq
Form: double-stranded DNA, one strand shown
Sample: in vitro
Concentration: not given
Notes: whole probe, mean of replicates
Relative to: not given
Direction: lower = stronger binding
Residues (chain): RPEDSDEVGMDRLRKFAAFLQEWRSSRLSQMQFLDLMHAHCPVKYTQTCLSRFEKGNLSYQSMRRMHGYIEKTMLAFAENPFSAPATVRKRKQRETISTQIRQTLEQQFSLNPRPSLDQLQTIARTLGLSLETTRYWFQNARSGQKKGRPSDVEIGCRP
Sequence	relative binding energy [ln ratio]
GAGTCGTCTCGTCAGCACATGCCGGCCCGTAGAGCACTCAGGTC	1.36
GAGTCGTCTCGTCAGCACGTTGTAATCCGTAGAGCACTCAGGTC	0.138
GAGTCGTCTCGTCAGCACTCCATAATCCGTAGAGCACTCAGGTC	0.575
GAGTCGTCTCGTCAGCACATACGAATCCGTAGAGCACTCAGGTC	1.06

Set 4
Target: Histone acetyltransferase KAT6A, both winged helices, GST fusion (KAT6A, Homo sapiens, UniProt Q92794, residues 1-181)
Method: protein binding microarray
Form: double-stranded DNA, one strand shown
Sample: in vitro
Concentration: not given
Notes: 8-mer, flanks averaged, mean of 2 arrays, mostly near background
Relative to: not given
Direction: higher = stronger binding
Construct (chain): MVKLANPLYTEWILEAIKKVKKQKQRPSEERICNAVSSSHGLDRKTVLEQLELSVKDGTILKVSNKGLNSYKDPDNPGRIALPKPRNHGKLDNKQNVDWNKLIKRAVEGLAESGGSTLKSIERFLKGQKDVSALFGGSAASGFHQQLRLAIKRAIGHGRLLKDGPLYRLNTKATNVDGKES
Sequence	E-score
TCCCACCA	-0.257
CGCTAGGC	0.125
CTAGTTTC	-0.0902
AGTACCTC	-0.144
CATAGTCA	-0.224
TCAGGCGA	-0.0689
TCCTAACA	-0.143
CATAACTC	-0.00804

Set 5
Target: Replicase polyprotein 1ab, main protease (rep, Severe acute respiratory syndrome coronavirus 2, UniProt P0DTD1)
Read-out: enzyme activity
Mode: inhibitor
Concentration: 20 µM
Notes: primary screen
SMILES	inhibition
Nc1nc(-c2ccc(Cl)c(Cl)c2)c(-c2ccncc2)s1	46.8%
CCCc1cc(C(=N)S)ccn1	38.6%
CCCCOc1ccc(CC/C=C2\SC(=O)N(CCN)C2=O)cc1	40.3%

Set 6
Target: TAR DNA-binding protein 43, full length, His tag (TARDBP, Homo sapiens, UniProt Q13148, residues 1-414)
Method: RNA Bind-n-Seq
Form: RNA
Sample: in vitro
Concentration: 20 nM
Notes: 6-mer, flanks averaged, single round
With: 150 mM LiCl
Relative to: input library
Direction: higher = stronger binding
Sequence	6-mer enrichment (R)
CAUAAA	0.838
AGCCUU	0.977
AUUAUA	1.04
UGUGUG	3.17
UGAGUC	0.962
UUUGCA	1.05
GCACGA	0.886
GGGUUG	1.28

Repeated from above (set 2):
Structure (SMILES)	inhibition [%]
C[C@H](N[C@@H](CCc1ccccc1)C(=O)O)C(=O)N1Cc2ccccc2C[C@H]1C(=O)O	0.3
Nc1cccc(-c2cc3c(Oc4cccc(O)c4)ncnc3[nH]2)c1	2.42
CN(C(=O)CN(CCO)CC(=O)N(C)C(C)(C)Cc1ccccc1)C(C)(C)Cc1ccccc1	2.31
